{"data": "Assay results collected from several papers", "note": "Each line is one published result; not all experiments were run side by side. “And” joins repeats or separate records; there may be more than shown. Numbers after ± are the reported error."}
{"SMILES": "N#Cc1ccn2c(-c3ccncc3)c(-c3ccc(F)cc3)nc2c1", "test": "kinase binding, competitor, MIB/MS competition, item: CAK1", "system": "Candida albicans cell lysate", "conditions": "10 µM", "how to read": "baseline: DMSO", "endpoint": "log2 fold change", "value": 0.231}
{"SMILES": "COc1cccc(Nc2nc(NCC3CCCO3)c3ccccc3n2)c1.Cl (stereo not drawn)", "target or system": "Renilla luciferase reporter mRNA", "test": "in vitro translation, inhibitor", "system": "Trypanosoma cruzi translation extract", "conditions": "40 µM", "endpoint": "inhibition", "value": "74.5%"}
{"SMILES": "CS(=O)(=O)c1ccc(-c2c(-c3ccccn3)nc3n2CCC3)cc1", "target or system": "Leishmania infantum", "system": "intramacrophage amastigotes, MHOM/MA(BE)/67/ITMAP263", "endpoint": "IC50", "value": "> 64000 nM"}
{"SMILES": "Cl.Fc1ccc(Nc2nc(NCC3CCCO3)c3ccccc3n2)cc1 (stereo not drawn)", "target or system": "Renilla luciferase reporter mRNA", "test": "in vitro translation, inhibitor", "system": "Trypanosoma cruzi translation extract", "conditions": "20 µM", "endpoint": "inhibition", "value": "53.6%"}
{"SMILES": "Clc1ccc(-c2c(-c3ccccn3)nc3n2CCC3)cc1", "target or system": "Leishmania infantum", "system": "macrophages, MHOM/MA(BE)/67/ITMAP263, amastigote", "endpoint": "IC50", "value": "1810 nM and 1260 nM"}
{"SMILES": "CCn1cc(-c2cc(Cn3ccnc3)cc3c2CCN([C@H](c2cc(OC)ccn2)C2CC2)C3=O)c(C(F)(F)F)n1", "target or system": "COLO792", "test": "cell growth", "conditions": "120 h", "endpoint": "EC50", "value": "12900 nM"}
{"SMILES": "CC(C)(C)[C@H]1CC[C@H](CC2=C(O)C(=O)c3ccccc3C2=O)CC1", "target or system": "THP-1", "test": "pyroptotic LDH release", "conditions": "2 µM, 40 min, together with: LPS then nigericin", "endpoint": "inhibition", "value": "44.8%"}
{"SMILES": "CCN1CCN(Cc2ccc(Nc3ncc(F)c(-c4cc(F)c5nc6n(c5c4)[C@H](C)CCC6)n3)nc2)CC1", "system": "human advanced solid tumours", "conditions": "500 mg, phase Ia monotherapy RECIST 1.1", "endpoint": "disease control rate", "value": "83.3%"}
{"SMILES": "CC(C)n1ncc2c(C(=O)NCC3(C)CNC3)cc(C3CC3)nc21", "target or system": "coxsackievirus A6", "test": "CPE", "system": "RD", "conditions": "0.15 µM", "endpoint": "cell protection", "value": "8.71% and 11.2%"}
{"SMILES": "COc1cnc2cccc(N3CCc4c(cc(Cn5ccnc5C)cc4-c4cn(C)nc4C(F)(F)F)C3=O)c2c1", "target or system": "SUM-159-PT", "test": "cell growth, inhibitor", "conditions": "120 h", "endpoint": "EC50", "value": "1990 nM"}
{"SMILES": "c1coc(-c2n[nH]cc2-c2ccnc3ccccc23)c1", "target or system": "IRE1 (Candida albicans)", "test": "kinase binding, MIB/MS competition", "system": "Candida albicans lysate", "conditions": "1 µM", "how to read": "baseline: DMSO", "endpoint": "log2 fold change", "value": -0.21}
{"SMILES": "COc1c(O)c(C)cc2c1C(=O)c1c(O)cccc1C2=O", "target or system": "HK-2 co-cultured with HepaRG", "test": "MTT", "conditions": "133.33 µM, 24 h", "how to read": "baseline: untreated control", "endpoint": "viability", "value": "68.2 ± 11.6%"}
{"SMILES": "C=CS(=O)(=O)c1ccc(Nc2nc(OCC3CCCCC3)c3nc[nH]c3n2)cc1", "target or system": "THP-1", "test": "pyroptotic LDH release", "conditions": "2 µM, 40 min, together with: LPS then nigericin", "endpoint": "inhibition", "value": "95.5%"}
{"SMILES": "Oc1ccccc1-c1n[nH]cc1-c1ccnc2ccccc12", "target or system": "KSP1 (Candida albicans)", "test": "kinase binding, MIB/MS competition", "system": "Candida albicans lysate", "conditions": "10 µM", "how to read": "baseline: DMSO", "endpoint": "log2 fold change", "value": 0.17}
{"SMILES": "c1ccc(-c2nc3n(c2-c2ccc4sc5ccccc5c4c2)CCC3)nc1", "target or system": "Leishmania infantum", "system": "macrophages, MHOM/MA(BE)/67/ITMAP263, amastigote", "endpoint": "IC50", "value": "170 nM and 520 nM"}
{"SMILES": "CCC[S+]([O-])c1ccc2[nH]c(NC(=O)OC)nc2c1 (stereo not drawn)", "target or system": "THP-1", "test": "pyroptotic LDH release", "conditions": "2 µM, 40 min, together with: LPS then nigericin", "endpoint": "inhibition", "value": "24.4%"}
{"SMILES": "Cn1cc(-c2ccc(-c3cncc(Cl)c3N3CCC4(CCNC4=O)CC3)cc2)cn1", "target or system": "COLO 205", "test": "gene expression, microarray, item: BACE1 mRNA", "conditions": "concentration not given, 2 h", "how to read": "baseline: untreated cells", "endpoint": "log2 fold change", "value": 6.8}
{"SMILES": "CC(C)[C@H](NC(=O)[C@@H](NC(=O)CCCc1cn(CC(O)CN2CCN(CC(=O)O)CCN(CC(=O)O)CCN(CC(=O)O)CC2)nn1)[C@@H](C)O)C(=O)N[C@@H](CCCNC(=N)N)C(=O)N[C@H](C(=O)N[C@@H](CO)C(=O)N[C@@H](C)C(=O)N[C@@H](CC(=O)O)C(=O)O)[C@@H](C)O (stereo partly drawn)", "system": "healthy male humans, plasma", "conditions": "intravenous, 0.08 mmol/kg", "endpoint": "AUC(0-inf)", "value": "2200 ± 162 µg·h/mL"}
{"SMILES": "CC(C)CN(c1ccc(F)cc1)c1c(-c2ccccn2)nc2ccccn12", "target or system": "Leishmania infantum", "system": "macrophages, MHOM/MA(BE)/67/ITMAP263, amastigote", "endpoint": "IC50", "value": "4550 nM and 590 nM"}
{"SMILES": "O=C(CC(=O)C(F)(F)F)c1cccs1", "target or system": "THP-1", "test": "pyroptotic LDH release", "conditions": "2 µM, 40 min, together with: LPS then nigericin", "endpoint": "inhibition", "value": "-7.32%"}
{"SMILES": "COc1c(O[C@@H]2O[C@H](CO)[C@@H](O)[C@H](O)[C@H]2O)c(C)cc2c1C(=O)c1c(O)cccc1C2=O", "target or system": "HK-2 co-cultured with HepaRG", "test": "MTT", "conditions": "16.67 µM, 48 h", "how to read": "baseline: untreated control", "endpoint": "cell viability", "value": "86.5 ± 6.03%"}
{"SMILES": "O=C(O)CNC(=O)Cc1ccccc1", "system": "ventricular cardiomyocytes, C57BL/6 mouse", "conditions": "dose not given, 0.008 s", "endpoint": "sarcomere length", "value": "1.72 µm"}
{"SMILES": "CCn1cc(-c2cc(Cn3ccoc3=N)cc3c2CCN([C@@H](C)c2cc(OC)ccn2)C3=O)c(C(F)(F)F)n1", "target or system": "SW48", "test": "cell growth, inhibitor", "conditions": "120 h", "endpoint": "EC50", "value": "16.5 nM"}
{"SMILES": "CCOC(=O)c1ccccc1O", "target or system": "THP-1", "test": "pyroptotic LDH release", "conditions": "2 µM, 40 min, together with: LPS then nigericin", "endpoint": "inhibition", "value": "-16.1%"}
{"SMILES": "O=C(/C=C/C=C/C=C/C1CCCCC1)NC1=C[C@@](O)(/C=C/C=C/C=C/C(=O)NC2=C(O)CCC2=O)[C@@H]2O[C@@H]2C1=O", "target or system": "Calu-1", "test": "cell growth, CellTiter-Glo", "conditions": "78 h", "endpoint": "GI50", "value": "13600 nM"}
{"SMILES": "CN(c1ccc(F)cc1)c1c(-c2cccc(F)n2)nc2ccccn12", "target or system": "Leishmania infantum", "system": "MHOM/MA(BE)/67/ITMAP263", "conditions": "120 h", "how to read": "baseline: CC50 macrophages over EC50 amastigotes", "endpoint": "selectivity index", "value": 6.3}
{"SMILES": "CC(C)[C@H](NC(=O)[C@H](Cc1ccc(O)cc1)NC(=O)[C@H](Cc1ccc(O)cc1)NC(=O)[C@@H]1CCCN1C(=O)[C@H](CCC(=O)O)NC(=O)[C@H](CCC(=O)O)NC(=O)[C@H](Cc1c[nH]c2ccccc12)NC(=O)[C@@H]1CCCN1C(=O)[C@@H](NC(=O)[C@H](CCC(N)=O)NC(=O)c1ccc2c(c1)C(=O)OC21c2ccc(O)cc2Oc2cc(O)ccc21)C(C)C)C(=O)N[C@H](C(=O)N[C@@H](CCCCN)C(=O)N[C@@H](CCCCN)C(=O)N[C@@H](CO)C(=O)N[C@@H](CO)C(=O)NCC(=O)NCC(N)=O)C(C)C", "system": "human, plasma", "conditions": "intravenous infusion, 189.6 mg, 2 h", "endpoint": "plasma concentration", "value": "254 ng/mL"}
{"SMILES": "CCOc1ccc2nc3cc(N)ccc3c(N)c2c1", "target or system": "THP-1", "test": "pyroptotic LDH release", "conditions": "2 µM, 40 min, together with: LPS then nigericin", "endpoint": "inhibition", "value": "5.44%"}
{"SMILES": "CC(C)NCC(O)c1ccc(O)c(O)c1 (stereo not drawn)", "system": "ventricular cardiomyocytes, C57BL/6 mouse", "conditions": "dose not given, 0.172 s", "endpoint": "sarcomere length", "value": "1.51 µm"}
{"SMILES": "c1ccc(CNc2ncnc3nc[nH]c23)cc1", "target or system": "THP-1", "test": "pyroptotic LDH release", "conditions": "2 µM, 40 min, together with: LPS then nigericin", "endpoint": "inhibition", "value": "20.3%"}
{"SMILES": "OC(CCN1CCCCC1)(c1ccccc1)C1CC2C=CC1C2 (stereo not drawn)", "test": "resting-state EEG", "system": "healthy elderly humans", "conditions": "oral, 4 mg, eyes closed, LS mean", "endpoint": "power, EEG beta, O2-Pz", "value": "6.1 µV²"}
{"SMILES": "C[C@]1(COc2ccc(N3CCC(Oc4ccc(OC(F)(F)F)cc4)CC3)cc2)Cn2cc([N+](=O)[O-])nc2O1", "target or system": "THP-1", "test": "pyroptotic LDH release", "conditions": "2 µM, 40 min, together with: LPS then nigericin", "endpoint": "inhibition", "value": "16.4%"}
{"SMILES": "CC[C@H](CO)N(CCN(N=O)[C@H](CC)CO)N=O", "target or system": "Salmonella typhimurium", "test": "mutagenicity, Ames plate incorporation", "system": "TA98", "conditions": "150 µg/plate, without S9, methanol", "endpoint": "revertant colonies per plate", "value": "28.3 ± 3"}
{"note": "Some of these lines once more:"}
{"SMILES": "O=C(O)CNC(=O)Cc1ccccc1", "system": "ventricular cardiomyocytes, C57BL/6 mouse", "conditions": "dose not given, 0.008 s", "endpoint": "sarcomere length", "value": "1.72 µm"}
{"SMILES": "O=C(/C=C/C=C/C=C/C1CCCCC1)NC1=C[C@@](O)(/C=C/C=C/C=C/C(=O)NC2=C(O)CCC2=O)[C@@H]2O[C@@H]2C1=O", "target or system": "Calu-1", "test": "cell growth, CellTiter-Glo", "conditions": "78 h", "endpoint": "GI50", "value": "13600 nM"}
{"SMILES": "CN(c1ccc(F)cc1)c1c(-c2cccc(F)n2)nc2ccccn12", "target or system": "Leishmania infantum", "system": "MHOM/MA(BE)/67/ITMAP263", "conditions": "120 h", "how to read": "baseline: CC50 macrophages over EC50 amastigotes", "endpoint": "selectivity index", "value": 6.3}
{"SMILES": "CS(=O)(=O)c1ccc(-c2c(-c3ccccn3)nc3n2CCC3)cc1", "target or system": "Leishmania infantum", "system": "intramacrophage amastigotes, MHOM/MA(BE)/67/ITMAP263", "endpoint": "IC50", "value": "> 64000 nM"}
{"SMILES": "CC[C@H](CO)N(CCN(N=O)[C@H](CC)CO)N=O", "target or system": "Salmonella typhimurium", "test": "mutagenicity, Ames plate incorporation", "system": "TA98", "conditions": "150 µg/plate, without S9, methanol", "endpoint": "revertant colonies per plate", "value": "28.3 ± 3"}
